Measured values gathered from unrelated publications.
Lines come from different studies, so protocols differ. ± marks the error that the study gave.
Broad substrate specificity ATP-binding cassette transporter ABCG2: Broad substrate specificity ATP-binding cassette transporter ABCG2 (Mus musculus, UniProt Q7TMS5)
UniProt Q7TMS5, sequence (whole entry, looked up): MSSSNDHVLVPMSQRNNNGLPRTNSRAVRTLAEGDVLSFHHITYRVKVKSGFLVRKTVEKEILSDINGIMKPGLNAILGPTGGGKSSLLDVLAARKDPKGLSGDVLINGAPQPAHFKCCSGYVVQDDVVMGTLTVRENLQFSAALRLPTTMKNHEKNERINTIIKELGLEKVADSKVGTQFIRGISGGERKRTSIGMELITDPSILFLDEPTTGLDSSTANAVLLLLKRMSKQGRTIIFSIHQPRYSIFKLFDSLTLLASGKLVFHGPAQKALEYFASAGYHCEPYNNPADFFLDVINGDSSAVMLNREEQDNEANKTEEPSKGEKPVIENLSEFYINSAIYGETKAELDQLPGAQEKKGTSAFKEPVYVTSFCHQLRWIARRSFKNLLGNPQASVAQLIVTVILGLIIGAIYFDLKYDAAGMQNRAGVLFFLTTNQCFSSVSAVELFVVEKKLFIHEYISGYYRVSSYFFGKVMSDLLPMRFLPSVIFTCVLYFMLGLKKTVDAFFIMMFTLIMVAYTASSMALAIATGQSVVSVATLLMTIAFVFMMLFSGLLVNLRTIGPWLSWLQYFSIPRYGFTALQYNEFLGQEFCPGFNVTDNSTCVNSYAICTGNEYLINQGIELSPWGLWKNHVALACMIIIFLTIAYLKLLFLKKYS
CYP2B6: Cytochrome P450 2B6 (CYP2B6, Homo sapiens, UniProt P20813)
UniProt P20813, sequence (whole entry, looked up): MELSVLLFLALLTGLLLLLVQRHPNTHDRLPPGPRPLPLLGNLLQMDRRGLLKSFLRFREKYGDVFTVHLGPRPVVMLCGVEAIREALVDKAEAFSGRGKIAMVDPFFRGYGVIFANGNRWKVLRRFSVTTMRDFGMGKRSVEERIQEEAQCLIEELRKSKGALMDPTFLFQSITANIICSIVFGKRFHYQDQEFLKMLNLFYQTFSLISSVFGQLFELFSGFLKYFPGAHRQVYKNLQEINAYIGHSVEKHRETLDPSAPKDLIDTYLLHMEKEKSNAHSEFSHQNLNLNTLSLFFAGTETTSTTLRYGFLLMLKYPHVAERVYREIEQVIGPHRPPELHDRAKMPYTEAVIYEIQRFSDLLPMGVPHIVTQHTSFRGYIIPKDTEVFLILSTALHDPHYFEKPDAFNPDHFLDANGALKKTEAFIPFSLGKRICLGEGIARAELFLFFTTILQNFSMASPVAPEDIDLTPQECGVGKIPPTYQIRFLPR
HCRTR1: Orexin/Hypocretin receptor type 1 (HCRTR1, Homo sapiens, UniProt O43613)
UniProt O43613, sequence (whole entry, looked up): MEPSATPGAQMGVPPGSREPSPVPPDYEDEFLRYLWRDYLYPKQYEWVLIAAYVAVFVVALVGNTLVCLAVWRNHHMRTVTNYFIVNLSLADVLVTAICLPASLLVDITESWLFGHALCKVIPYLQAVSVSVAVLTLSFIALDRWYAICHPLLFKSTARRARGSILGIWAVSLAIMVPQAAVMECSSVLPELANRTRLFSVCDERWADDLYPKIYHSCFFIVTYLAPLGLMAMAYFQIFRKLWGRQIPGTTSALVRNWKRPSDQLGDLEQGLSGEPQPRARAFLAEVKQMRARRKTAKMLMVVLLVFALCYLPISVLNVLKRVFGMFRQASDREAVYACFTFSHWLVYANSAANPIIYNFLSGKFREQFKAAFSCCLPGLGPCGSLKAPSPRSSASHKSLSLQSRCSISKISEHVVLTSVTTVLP
UniProt P05177, sequence (whole entry, looked up): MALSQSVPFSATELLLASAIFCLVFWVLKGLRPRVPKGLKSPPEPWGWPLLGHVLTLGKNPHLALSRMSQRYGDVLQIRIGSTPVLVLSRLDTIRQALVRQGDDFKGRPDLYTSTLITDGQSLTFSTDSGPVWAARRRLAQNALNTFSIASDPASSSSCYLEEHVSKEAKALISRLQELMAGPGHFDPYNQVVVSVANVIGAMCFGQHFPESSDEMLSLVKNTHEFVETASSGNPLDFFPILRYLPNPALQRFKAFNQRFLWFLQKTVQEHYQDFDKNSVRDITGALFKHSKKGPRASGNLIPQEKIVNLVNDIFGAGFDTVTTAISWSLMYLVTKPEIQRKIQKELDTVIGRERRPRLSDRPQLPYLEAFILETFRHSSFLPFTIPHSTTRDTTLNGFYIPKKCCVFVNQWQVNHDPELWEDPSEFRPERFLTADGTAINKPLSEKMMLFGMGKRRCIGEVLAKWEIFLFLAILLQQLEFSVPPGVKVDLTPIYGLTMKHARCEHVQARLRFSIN
UniProt Q92887, sequence (whole entry, looked up): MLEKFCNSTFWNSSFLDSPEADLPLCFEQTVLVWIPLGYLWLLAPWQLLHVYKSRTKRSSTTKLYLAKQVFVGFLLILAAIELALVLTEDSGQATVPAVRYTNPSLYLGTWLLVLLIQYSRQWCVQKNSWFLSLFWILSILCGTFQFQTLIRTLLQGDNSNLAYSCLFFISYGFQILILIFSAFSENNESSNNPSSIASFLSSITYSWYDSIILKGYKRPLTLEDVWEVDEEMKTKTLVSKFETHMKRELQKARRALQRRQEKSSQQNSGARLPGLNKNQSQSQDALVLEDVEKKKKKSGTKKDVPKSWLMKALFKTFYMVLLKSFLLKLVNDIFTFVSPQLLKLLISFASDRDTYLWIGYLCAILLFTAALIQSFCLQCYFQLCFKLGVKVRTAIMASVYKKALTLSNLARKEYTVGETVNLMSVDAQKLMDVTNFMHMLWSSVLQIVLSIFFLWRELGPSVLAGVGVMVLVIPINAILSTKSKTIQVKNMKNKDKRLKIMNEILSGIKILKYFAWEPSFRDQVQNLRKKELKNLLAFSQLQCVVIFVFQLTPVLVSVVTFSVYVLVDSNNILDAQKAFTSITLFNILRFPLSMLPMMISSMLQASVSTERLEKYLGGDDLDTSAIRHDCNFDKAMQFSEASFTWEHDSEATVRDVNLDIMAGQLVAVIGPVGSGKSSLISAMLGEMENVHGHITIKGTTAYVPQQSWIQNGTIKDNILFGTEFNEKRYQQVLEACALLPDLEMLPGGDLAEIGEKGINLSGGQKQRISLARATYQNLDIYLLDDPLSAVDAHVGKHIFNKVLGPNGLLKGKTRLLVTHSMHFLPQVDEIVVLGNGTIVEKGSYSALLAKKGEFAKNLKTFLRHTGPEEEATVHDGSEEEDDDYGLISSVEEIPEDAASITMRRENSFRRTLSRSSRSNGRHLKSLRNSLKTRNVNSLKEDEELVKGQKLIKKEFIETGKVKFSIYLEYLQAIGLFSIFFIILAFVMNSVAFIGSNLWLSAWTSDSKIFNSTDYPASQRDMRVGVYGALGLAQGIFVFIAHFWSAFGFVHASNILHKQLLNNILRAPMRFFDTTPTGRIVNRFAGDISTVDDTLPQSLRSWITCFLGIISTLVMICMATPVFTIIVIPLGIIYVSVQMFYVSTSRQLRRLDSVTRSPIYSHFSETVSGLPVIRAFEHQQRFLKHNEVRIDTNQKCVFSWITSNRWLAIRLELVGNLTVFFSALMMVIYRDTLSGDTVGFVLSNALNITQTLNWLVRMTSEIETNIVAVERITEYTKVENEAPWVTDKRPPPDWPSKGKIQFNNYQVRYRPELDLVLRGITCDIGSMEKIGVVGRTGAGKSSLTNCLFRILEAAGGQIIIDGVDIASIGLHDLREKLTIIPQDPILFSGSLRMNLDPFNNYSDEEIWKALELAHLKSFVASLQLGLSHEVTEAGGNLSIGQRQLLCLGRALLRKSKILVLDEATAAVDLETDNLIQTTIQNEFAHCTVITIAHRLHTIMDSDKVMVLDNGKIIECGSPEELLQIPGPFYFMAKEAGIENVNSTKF
UniProt P08682, sequence (whole entry, looked up): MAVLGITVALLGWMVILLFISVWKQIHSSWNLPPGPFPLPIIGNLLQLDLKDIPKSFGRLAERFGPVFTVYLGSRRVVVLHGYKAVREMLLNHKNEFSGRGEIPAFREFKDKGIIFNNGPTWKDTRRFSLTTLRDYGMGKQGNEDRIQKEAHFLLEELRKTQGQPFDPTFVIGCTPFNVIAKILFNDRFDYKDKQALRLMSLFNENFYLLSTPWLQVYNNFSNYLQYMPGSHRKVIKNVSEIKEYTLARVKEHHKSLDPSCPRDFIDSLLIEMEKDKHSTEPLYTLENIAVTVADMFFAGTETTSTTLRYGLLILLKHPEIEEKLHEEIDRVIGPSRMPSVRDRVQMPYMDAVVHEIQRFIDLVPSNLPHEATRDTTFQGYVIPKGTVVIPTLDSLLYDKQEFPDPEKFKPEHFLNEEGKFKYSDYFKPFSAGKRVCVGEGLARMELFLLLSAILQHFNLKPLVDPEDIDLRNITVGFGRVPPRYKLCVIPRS
UniProt P11509, sequence (whole entry, looked up): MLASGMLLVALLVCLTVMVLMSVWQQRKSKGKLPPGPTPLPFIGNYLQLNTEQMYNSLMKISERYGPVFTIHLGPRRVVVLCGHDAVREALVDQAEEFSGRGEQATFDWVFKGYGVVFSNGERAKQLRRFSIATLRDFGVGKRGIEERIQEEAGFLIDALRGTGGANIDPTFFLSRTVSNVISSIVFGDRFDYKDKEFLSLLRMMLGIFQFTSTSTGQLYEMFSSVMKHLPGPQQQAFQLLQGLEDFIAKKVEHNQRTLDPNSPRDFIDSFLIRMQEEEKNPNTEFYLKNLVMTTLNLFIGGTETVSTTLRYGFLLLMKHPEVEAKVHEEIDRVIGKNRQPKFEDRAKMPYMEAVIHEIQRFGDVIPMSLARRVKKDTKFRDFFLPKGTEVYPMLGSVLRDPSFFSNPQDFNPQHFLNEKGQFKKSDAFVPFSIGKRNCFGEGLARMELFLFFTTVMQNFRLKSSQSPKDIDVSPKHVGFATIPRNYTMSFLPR
UniProt P00761, sequence (whole entry, looked up): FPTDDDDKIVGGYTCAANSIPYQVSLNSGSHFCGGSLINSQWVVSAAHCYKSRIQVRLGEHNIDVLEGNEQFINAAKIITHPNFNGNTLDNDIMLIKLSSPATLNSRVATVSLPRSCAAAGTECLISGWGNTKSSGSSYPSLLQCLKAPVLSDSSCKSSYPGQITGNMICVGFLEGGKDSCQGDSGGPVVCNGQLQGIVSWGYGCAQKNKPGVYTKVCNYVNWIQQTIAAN

For `O=C(C=C(O)c1cc(Cc2c(F)cccc2F)cn(Cc2ccccc2F)c1=O)C(=O)NN1CCCC1=O`, the IC50 was over 300 µM (human UGT1A1, 1A6, 1A9, 2B7; competitive inhibitor; human liver microsomes; 15 min, pH 7.4, with: 4-methylumbelliferone 200 µM).
For `O=C(O)c1cc(/N=N/c2ccc(S(=O)(=O)Nc3ccccn3)cc2)ccc1O`, the Tmax was 30 min (Broad substrate specificity ATP-binding cassette transporter ABCG2; FVB mouse, plasma; oral, 20 mg/kg).
The AUC(0-inf) of `Cn1c(=O)c2c(ncn2C)n(C)c1=O` is reported as 61700 ng·h/mL (Cytochrome P450 1A2 (CYP1A2, Homo sapiens, UniProt P05177); human, plasma; oral, 200 mg, geometric LS mean, with: EDP-305 10 mg).
`c1n[nH]c2c1CCCC2` gave a Kd of 0.023 µM (CYP2E1 (Oryctolagus cuniculus, UniProt P08682); spectral titration; pH 7.4, 25 °C, first catalytic site).
The selectivity index of `Cc1cc(O)c(=O)c(O)cc1C(=O)N1CCc2cc(C3CCCCC3)ccc2C1` is reported as over 1000 (herpes simplex virus 1; viral replication; Vero; reference: CC50 over EC50).
`CCCCC/C=C\C/C=C\C/C=C\C/C=C\CCCC(=O)O` gave an inhibition of 75% (cytochrome P450 enzymes; M1 formation, inhibitor; pooled human intestinal microsomes; 500 µM, 5 min, pH 7.4, substrate named only as label, with: 3 µM substrate).
For `Nc1nc2c(ncn2[C@@H]2O[C@H](CO)[C@@H](O)[C@H]2O)c(=O)[nH]1`, the Ki was 36.5 ± 7.3 µM (Trichomonas vaginalis; transport, measured: nucleoside transporter; with: thymidine).
For `CC1=N[C@]2(C(=O)CO)[C@@H](C[C@H]3[C@@H]4C[C@@H](O)C5=CC(=O)C=C[C@]5(C)[C@H]4[C@@H](O)C[C@@]32C)O1`, the IC50 was over 50 µM (CYP2B6; enzyme activity, inhibitor; human, liver microsomes; with preincubation).
`CN(C)CC/C=C1\c2ccccc2CSc2ccccc21` gave a Kd of 84.7 µM (alpha-1-acid glycoprotein (human); isothermal titration calorimetry; pH 7.4, 30 °C, heterogeneous AGP preparation).
For `O=C1Nc2c(O)cc(Cl)cc2[C@@](C#CC2CC2)(C(F)(F)F)O1`, “glucuronide metabolic ratio” read “increased” (UGT; human cirrhosis; reference: healthy).
`Cc1coc2c1CC[C@@H](C)C2` gave a KI (inactivation) of 2.2 µM (Cytochrome P450 2A6 (CYP2A6, Homo sapiens, UniProt P11509); enzyme activity, inhibitor; pH 7.4).
For `CC[C@H](C)[C@H](NC(=O)[C@H](CCC(=O)O)NC(=O)[C@H](CO)NC(=O)[C@@H](NC(=O)[C@@H](N)CO)C(C)C)C(=O)N[C@@H](CCC(N)=O)C(=O)N[C@@H](CC(C)C)C(=O)N[C@@H](CCSC)C(=O)N[C@@H](Cc1cnc[nH]1)C(=O)N[C@@H](CC(N)=O)C(=O)N[C@@H](CC(C)C)C(=O)NCC(=O)N[C@@H](CCCCN)C(=O)N[C@@H](Cc1cnc[nH]1)C(=O)N[C@@H](CC(C)C)C(=O)N[C@@H](CC(N)=O)C(=O)N[C@@H](CO)C(=O)N[C@@H](CCSC)C(=O)N[C@@H](CCC(=O)O)C(=O)N[C@@H](CCCN=C(N)N)C(=O)N[C@H](C(=O)N[C@@H](CCC(=O)O)C(=O)N[C@@H](Cc1c[nH]c2ccccc12)C(=O)N[C@@H](CC(C)C)C(=O)N[C@@H](CCCN=C(N)N)C(=O)N[C@@H](CCCCN)C(=O)N[C@@H](CCCCN)C(=O)N[C@@H](CC(C)C)C(=O)N[C@@H](CCC(N)=O)C(=O)N[C@@H](CC(=O)O)C(=O)N[C@H](C(=O)N[C@@H](Cc1cnc[nH]1)C(=O)N[C@@H](CC(N)=O)C(=O)N[C@@H](Cc1ccccc1)C(=O)O)C(C)C)C(C)C`, “remaining intact compound” read 0% (Chymotrypsinogen A, activated (chymotrypsin) (Bos taurus, UniProt P00766); substrate, HPLC-UV; 5 min, pH 6.5, 37 °C, without trypsin inhibitor).
`CC(C)N(CCC(C(N)=O)(c1ccccc1)c1ccccn1)C(C)C` (stereo not drawn) gave a Kd of 29.6 µM (alpha-1-acid glycoprotein (human); isothermal titration calorimetry; pH 7.4, 30 °C, heterogeneous AGP preparation).
For `CC[C@H](C)[C@H](NC(=O)CN)C(=O)N[C@@H](CCCCN)C(=O)N[C@@H](CCCCN)C(=O)N[C@@H](Cc1ccccc1)C(=O)N[C@@H](CC(C)C)C(=O)N[C@@H](CCCCN)C(=O)N[C@]1(C)CCCCCCC=CCCC[C@@](C)(C(=O)N[C@@H](Cc2ccccc2)C(=O)N[C@@H](CCCCN)C(N)=O)NC(=O)[C@H](CCCCN)NC(=O)[C@H](C(C)C)NC(=O)[C@H](Cc2ccccc2)NC(=O)[C@H](CCCCN)NC(=O)[C@H](CCCCN)NC(=O)[C@H](C)NC1=O`, the remaining compound was 70 to 80% (Trypsin (Sus scrofa, UniProt P00761); UPLC; NH4HCO3 buffer 50 mM; concentration not given, 24 h, pH 7.8, 37 °C, with: Trypsin 0.2 U/mL).
For `CCCNc1cc(CC2c3cc(OC)c(OC)cc3CCN2CC(=O)NCc2ccccc2)ccc1OC` (stereo not drawn), the Kb was 0.92 µM (HCRTR1; calcium signal, antagonist, fluorescence).
The IC50 of `(+)-α-pinene` is reported as 292 µM (CYP2B6; enzyme activity, inhibitor, Vivid fluorescent).
The Papp A-B of `Cc1cccc(C)c1OCC(=O)N[C@@H](Cc1ccccc1)[C@@H](O)C[C@H](Cc1ccccc1)NC(=O)[C@H](C(C)C)N1CCCNC1=O` is reported as 3.1 ± 0.2 ×10⁻⁶ cm/s (ATP-binding cassette sub-family C member 2 (ABCC2, Homo sapiens, UniProt Q92887); MDCKII cells expressing target; 25 µM, 3 h, with: MK571 75 µM).
`CCCC[C@H](NC(C)=O)C(=O)N[C@H]1CCC(=O)NC[C@@H](C(=O)N[C@@H](Cc2c[nH]c3ccccc23)C(N)=O)NC(=O)[C@H](CCCNC(=N)N)NC(=O)[C@@H](Cc2ccccc2)NC(=O)[C@H](Cc2c[nH]cn2)NC1=O` gave a Vss/F of 330 L (healthy human, both sexes, plasma; subcutaneous, 3.0 mg once daily, day 7, arithmetic mean).
For `CC(C)[C@H](NC(=O)[C@@H]1CCCN1C(=O)[C@H](CCCNC(=N)N)NC(=O)[C@H](CS)NC(=O)[C@H](Cc1c[nH]c2ccccc12)NC(=O)[C@H](CCCNC(=N)N)NC(=O)[C@@H](Cc1ccccc1)NC(=O)[C@H](Cc1c[nH]cn1)NC(=O)[C@H](CCC(=O)O)NC(=O)[C@H](CS)NC(=O)[C@H](CS)NC(=O)[C@H](CCCCN)NC(=O)[C@@H]1CC(=O)N[C@@H](CCCNC(=N)N)C(=O)N[C@@H](C)C(=O)N[C@@H](CC(=O)O)C(=O)N[C@H](Cc2ccc(O)cc2)C(=O)N1)C(N)=O` [technetium-99m labelled], the tissue uptake was 0.11 ± 0.08 %ID/g (C57 mice, bone; intravenous, 0.037 MBq, 24 h).
`CN(C)CCCN1c2ccccc2CCc2ccccc21` has a Kd of 69.9 µM (alpha-1-acid glycoprotein (human); isothermal titration calorimetry; pH 7.4, 30 °C, heterogeneous AGP preparation).
`O=c1ccc2ccccc2o1` gave a Km of 1.48 ± 0.23 µM (CYP2A6 human; 7-hydroxylation, substrate; human liver microsomes; CYP2A6 added 216 pmol/mg, ratio 0.5).
For `Cc1ccc(Nc2nccc(N(C)c3ccc4c(C)n(C)nc4c3)n2)cc1S(N)(=O)=O`, the efflux ratio was 1.7 (Broad substrate specificity ATP-binding cassette transporter ABCG2; bidirectional transport; MDCK-Bcrp1 (murine Bcrp1); 5 µM, 240 min, with: erlotinib).
With `COc1cc2c(cc1OC)C(Cc1ccc(C(C)C)cc1)N(CC(=O)NCc1ccccc1)CC2` (stereo not drawn) the Kb was 0.085 µM (HCRTR1; calcium signal, antagonist, fluorescence).
With `O=C1Nc2ccc(Cl)cc2[C@@](C#CC2CC2)(C(F)(F)F)O1` the inhibition was 90% (CYP2B6; enzyme activity, inhibitor, measured: 4-hydroxylation; pooled human liver microsomes; 10 µM, pH 7.4, with: bupropion 50 µM).

For quick reference, copied from above:
`CCCC[C@H](NC(C)=O)C(=O)N[C@H]1CCC(=O)NC[C@@H](C(=O)N[C@@H](Cc2c[nH]c3ccccc23)C(N)=O)NC(=O)[C@H](CCCNC(=N)N)NC(=O)[C@@H](Cc2ccccc2)NC(=O)[C@H](Cc2c[nH]cn2)NC1=O` gave a Vss/F of 330 L (healthy human, both sexes, plasma; subcutaneous, 3.0 mg once daily, day 7, arithmetic mean).
The AUC(0-inf) of `Cn1c(=O)c2c(ncn2C)n(C)c1=O` is reported as 61700 ng·h/mL (Cytochrome P450 1A2 (CYP1A2, Homo sapiens, UniProt P05177); human, plasma; oral, 200 mg, geometric LS mean, with: EDP-305 10 mg).
For `Nc1nc2c(ncn2[C@@H]2O[C@H](CO)[C@@H](O)[C@H]2O)c(=O)[nH]1`, the Ki was 36.5 ± 7.3 µM (Trichomonas vaginalis; transport, measured: nucleoside transporter; with: thymidine).
